Assay results collected from several papers.
Each numbered part is a random draw from the data of one study; scales do not carry over between parts. Several values in a cell are separate wells, animals, samples, runs or records.
UniProt Q13470, sequence (whole entry, looked up): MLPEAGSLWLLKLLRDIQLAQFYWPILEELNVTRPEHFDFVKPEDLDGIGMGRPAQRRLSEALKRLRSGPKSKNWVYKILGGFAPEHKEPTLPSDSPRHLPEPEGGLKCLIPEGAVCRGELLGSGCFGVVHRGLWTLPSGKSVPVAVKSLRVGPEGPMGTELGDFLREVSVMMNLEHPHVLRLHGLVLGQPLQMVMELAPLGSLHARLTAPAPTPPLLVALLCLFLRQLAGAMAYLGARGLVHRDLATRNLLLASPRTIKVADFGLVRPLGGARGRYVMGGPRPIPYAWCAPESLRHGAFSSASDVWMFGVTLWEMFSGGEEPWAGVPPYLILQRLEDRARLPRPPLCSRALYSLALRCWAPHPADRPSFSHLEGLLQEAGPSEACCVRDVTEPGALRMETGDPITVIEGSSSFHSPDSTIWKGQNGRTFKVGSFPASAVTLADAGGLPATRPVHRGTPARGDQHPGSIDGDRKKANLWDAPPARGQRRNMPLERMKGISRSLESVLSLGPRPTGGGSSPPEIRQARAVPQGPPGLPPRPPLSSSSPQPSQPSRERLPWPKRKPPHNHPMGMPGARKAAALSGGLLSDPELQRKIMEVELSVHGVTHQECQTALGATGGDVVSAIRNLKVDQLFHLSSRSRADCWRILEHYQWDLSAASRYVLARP
UniProt Q13976, sequence (whole entry, looked up): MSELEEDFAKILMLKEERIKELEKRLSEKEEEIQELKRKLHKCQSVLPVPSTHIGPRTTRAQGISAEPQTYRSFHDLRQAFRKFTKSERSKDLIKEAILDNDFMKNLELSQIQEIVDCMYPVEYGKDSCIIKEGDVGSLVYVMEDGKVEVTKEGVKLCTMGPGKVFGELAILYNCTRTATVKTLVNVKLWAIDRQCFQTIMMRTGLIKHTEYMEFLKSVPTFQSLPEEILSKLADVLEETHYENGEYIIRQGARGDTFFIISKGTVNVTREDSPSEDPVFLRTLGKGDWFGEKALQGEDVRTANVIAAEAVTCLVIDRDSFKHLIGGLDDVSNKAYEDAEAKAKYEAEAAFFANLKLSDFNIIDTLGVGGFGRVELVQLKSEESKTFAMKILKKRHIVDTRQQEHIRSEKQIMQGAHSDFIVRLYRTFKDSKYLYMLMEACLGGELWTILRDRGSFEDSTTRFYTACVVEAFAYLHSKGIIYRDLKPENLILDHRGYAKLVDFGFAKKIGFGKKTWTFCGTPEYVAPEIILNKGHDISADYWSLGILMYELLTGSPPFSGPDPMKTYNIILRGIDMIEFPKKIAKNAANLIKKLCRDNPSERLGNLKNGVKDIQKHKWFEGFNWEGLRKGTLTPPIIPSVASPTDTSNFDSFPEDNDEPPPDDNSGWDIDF
UniProt Q9NRH2, sequence (whole entry, looked up): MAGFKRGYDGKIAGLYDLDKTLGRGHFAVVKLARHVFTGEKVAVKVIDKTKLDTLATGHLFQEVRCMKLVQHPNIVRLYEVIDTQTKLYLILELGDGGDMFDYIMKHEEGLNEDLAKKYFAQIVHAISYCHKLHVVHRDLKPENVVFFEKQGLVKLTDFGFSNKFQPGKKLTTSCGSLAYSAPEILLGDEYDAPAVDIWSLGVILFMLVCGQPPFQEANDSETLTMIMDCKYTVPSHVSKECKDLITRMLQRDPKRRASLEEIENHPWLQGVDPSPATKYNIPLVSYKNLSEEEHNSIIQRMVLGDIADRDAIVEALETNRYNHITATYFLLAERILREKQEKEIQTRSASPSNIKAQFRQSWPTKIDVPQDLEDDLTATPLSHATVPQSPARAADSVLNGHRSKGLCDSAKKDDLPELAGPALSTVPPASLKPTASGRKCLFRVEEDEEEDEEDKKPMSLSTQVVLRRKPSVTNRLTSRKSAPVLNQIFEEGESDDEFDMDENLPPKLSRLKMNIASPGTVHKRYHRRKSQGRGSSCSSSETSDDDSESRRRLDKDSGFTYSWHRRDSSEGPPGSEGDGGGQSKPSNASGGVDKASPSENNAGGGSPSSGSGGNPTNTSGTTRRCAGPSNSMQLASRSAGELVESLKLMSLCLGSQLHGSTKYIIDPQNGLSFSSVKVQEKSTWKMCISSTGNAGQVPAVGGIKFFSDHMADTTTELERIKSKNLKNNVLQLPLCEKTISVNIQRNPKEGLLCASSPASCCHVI
UniProt Q15349, sequence (whole entry, looked up): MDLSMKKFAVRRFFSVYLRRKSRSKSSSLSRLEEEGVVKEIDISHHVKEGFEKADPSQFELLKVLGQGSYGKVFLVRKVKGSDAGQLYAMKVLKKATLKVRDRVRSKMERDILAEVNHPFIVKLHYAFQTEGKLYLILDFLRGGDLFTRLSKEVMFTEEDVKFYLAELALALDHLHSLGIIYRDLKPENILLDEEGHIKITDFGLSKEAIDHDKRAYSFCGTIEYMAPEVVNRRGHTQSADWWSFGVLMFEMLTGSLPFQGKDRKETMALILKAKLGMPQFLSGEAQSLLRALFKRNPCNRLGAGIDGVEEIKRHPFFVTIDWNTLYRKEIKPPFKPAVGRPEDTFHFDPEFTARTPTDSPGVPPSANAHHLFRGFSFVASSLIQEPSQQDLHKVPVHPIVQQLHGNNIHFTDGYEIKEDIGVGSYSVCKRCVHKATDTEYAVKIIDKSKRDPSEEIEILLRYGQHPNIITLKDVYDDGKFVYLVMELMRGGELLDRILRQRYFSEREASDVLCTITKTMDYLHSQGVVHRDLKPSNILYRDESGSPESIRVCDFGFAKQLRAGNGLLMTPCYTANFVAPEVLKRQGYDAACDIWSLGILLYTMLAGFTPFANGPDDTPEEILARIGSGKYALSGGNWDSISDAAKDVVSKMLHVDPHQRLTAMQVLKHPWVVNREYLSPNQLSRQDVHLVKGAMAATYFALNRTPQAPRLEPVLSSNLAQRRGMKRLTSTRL
UniProt P51812, sequence (whole entry, looked up): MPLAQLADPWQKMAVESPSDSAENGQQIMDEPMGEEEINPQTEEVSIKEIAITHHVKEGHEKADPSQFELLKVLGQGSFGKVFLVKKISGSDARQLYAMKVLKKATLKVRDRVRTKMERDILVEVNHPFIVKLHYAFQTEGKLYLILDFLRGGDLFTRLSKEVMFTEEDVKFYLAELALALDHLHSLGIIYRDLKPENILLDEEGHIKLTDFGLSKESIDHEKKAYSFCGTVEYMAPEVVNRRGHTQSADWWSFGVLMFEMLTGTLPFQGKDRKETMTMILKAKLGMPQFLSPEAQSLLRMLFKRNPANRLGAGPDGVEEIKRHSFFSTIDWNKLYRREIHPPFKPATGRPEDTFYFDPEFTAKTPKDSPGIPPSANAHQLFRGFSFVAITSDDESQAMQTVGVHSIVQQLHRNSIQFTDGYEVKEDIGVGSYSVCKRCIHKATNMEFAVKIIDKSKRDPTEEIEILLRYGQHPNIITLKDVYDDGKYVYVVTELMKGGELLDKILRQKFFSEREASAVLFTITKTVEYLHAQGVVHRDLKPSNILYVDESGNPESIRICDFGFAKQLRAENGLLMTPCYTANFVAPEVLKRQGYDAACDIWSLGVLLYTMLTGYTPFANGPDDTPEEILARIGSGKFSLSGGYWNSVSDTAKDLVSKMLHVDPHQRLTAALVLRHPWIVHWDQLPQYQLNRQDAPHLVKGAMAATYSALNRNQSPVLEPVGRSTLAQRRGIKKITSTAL
UniProt Q9H3Y6, sequence (whole entry, looked up): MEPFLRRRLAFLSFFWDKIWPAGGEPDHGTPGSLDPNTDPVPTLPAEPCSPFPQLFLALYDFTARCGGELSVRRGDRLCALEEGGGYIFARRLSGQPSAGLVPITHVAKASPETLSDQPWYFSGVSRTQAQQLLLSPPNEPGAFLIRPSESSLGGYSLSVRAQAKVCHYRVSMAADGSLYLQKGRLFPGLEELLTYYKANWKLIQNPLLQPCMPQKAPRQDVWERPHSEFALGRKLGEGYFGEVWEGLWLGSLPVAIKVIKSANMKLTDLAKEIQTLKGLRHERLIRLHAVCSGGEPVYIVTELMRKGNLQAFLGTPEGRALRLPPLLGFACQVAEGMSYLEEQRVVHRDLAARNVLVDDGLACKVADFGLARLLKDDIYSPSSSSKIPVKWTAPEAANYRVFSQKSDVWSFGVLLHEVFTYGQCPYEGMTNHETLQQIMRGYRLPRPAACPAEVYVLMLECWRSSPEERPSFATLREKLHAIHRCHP
UniProt P48729, sequence (whole entry, looked up): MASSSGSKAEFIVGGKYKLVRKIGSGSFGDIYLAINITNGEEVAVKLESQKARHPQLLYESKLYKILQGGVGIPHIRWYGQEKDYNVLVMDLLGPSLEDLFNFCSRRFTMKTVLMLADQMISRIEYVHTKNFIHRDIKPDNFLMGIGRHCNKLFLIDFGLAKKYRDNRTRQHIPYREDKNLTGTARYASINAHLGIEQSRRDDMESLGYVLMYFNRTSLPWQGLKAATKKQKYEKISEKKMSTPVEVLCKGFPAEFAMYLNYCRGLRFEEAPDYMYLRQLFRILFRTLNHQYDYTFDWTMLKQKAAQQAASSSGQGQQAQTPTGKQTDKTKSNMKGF

Study 1 — read-out: binding; technique: NanoBRET; cell line: HEK293 (live); reading: lower = stronger binding; quantity: target engagement
SMILES: C=CC(=O)N1CCN(c2nc(=O)n(-c3c(C)ccnc3C(C)C)c3nc(-c4c(O)cccc4F)c(F)cc23)[C@@H](C)C1
HRAS: GTPase HRas (HRAS, Homo sapiens, UniProt P01112)
HRAS G12V: GTPase HRas (HRAS, Homo sapiens, UniProt P01112, G12V)
HRAS; 0.8239 µM: 86% and 89.3% and 84.9%
HRAS; 0.3468 µM: 80.7% and 93.6% and 91.4%
HRAS; 1.301 µM: 82.6% and 77.9% and 84.4%
HRAS G12V; 0.8239 µM: 92.4% and 108% and 97.4% and 97%
HRAS G12V; 1.301 µM: 87.6% and 96.6% and 92.5% and 105%
HRAS G12V; 0.3468 µM: 85.2% and 94% and 109% and 93.6%

Study 2 — read-out: cell-free assay; technique: competition with immobilised ligand; concentration: 1 µM; quantity: remaining binding
SMILES: CC(=O)C1=C(C)N(c2cccc(C(F)(F)F)c2)C(=O)N[C@@H]1c1ccc(C#N)nc1
EGFR (Homo sapiens, UniProt P00533, G719S): 100%
Ribosomal protein S6 kinase alpha-3, N-terminal kinase domain (RPS6KA3, Homo sapiens, UniProt P51812): 100%
HIPK2 (Homo sapiens, UniProt Q9H2X6): 94.3%
SNRK (Homo sapiens, UniProt Q9NRH2): 100%
MAP3K11 (Homo sapiens, UniProt Q16584): 100%
BRSK1 (Homo sapiens, UniProt Q8TDC3): 100%
MAP2K7 (Homo sapiens, UniProt O14733): 100%
PRKG1 (Homo sapiens, UniProt Q13976): 45.5%
SRMS (Homo sapiens, UniProt Q9H3Y6): 97.9%
CSNK1A1 (Homo sapiens, UniProt P48729): 91.5%
MYLK (Homo sapiens, UniProt Q15746): 83.8%
NEK10 (Homo sapiens, UniProt Q6ZWH5): 96.4%
EPHB1 (Homo sapiens, UniProt P54762): 100%
Ribosomal protein S6 kinase alpha-2, C-terminal kinase domain (RPS6KA2, Homo sapiens, UniProt Q15349): 100%
Tyrosine-protein kinase ABL1, phosphorylated (ABL1, Homo sapiens, UniProt P00519, M351T): 100%
TNK1 (Homo sapiens, UniProt Q13470): 62.1%
LATS2 (Homo sapiens, UniProt Q9NRM7): 100%

Study 3 — read-out: enzyme activity; mode: inhibitor; concentration: 0.5 µM; relative to: control; quantity: remaining activity
Target: G protein-coupled receptor kinase 5 (GRK5, Homo sapiens, UniProt P34947)
UniProt P34947, sequence (whole entry, looked up): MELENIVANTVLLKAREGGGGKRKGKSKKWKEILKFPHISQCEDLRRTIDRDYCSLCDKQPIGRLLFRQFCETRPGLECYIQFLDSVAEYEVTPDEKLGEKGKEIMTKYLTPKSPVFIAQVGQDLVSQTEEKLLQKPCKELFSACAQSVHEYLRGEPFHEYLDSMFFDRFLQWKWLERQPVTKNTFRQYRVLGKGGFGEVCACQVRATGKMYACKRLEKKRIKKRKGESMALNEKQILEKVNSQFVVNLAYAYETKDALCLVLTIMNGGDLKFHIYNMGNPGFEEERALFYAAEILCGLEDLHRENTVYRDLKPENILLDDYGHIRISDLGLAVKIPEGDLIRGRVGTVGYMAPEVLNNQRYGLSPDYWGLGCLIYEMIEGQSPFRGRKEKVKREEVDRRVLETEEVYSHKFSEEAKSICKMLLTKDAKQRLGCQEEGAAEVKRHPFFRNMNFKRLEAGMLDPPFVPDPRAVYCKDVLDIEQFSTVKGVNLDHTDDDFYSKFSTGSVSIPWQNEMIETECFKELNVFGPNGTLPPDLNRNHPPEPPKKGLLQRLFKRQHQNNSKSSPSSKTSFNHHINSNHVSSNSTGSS
c1ccc(-c2cnc(Nc3ccc(OCCN4CCCC4)cc3)s2)cc1: 99.4%
Cc1cn(-c2cc(NC(=O)c3ccc(C)c(Nc4nccc(-c5cccnc5)n4)c3)cc(C(F)(F)F)c2)cn1: 98.6%
Cc1cc2ncc(-c3ccccc3)nc2cc1C: 107%
O=C(Nc1cccc(Nc2nccc(Nc3cccc(C(F)(F)F)c3)n2)c1)C1CC1: 104%
O=C1c2ccccc2-c2n[nH]c3cccc1c23: 98.8%
N#Cc1c(NC(=O)c2cccc3ccccc23)sc2c1CCCC2: 98.2%
N#C/C(=C\c1ccc(O)c(O)c1)C(=O)NCc1ccccc1: 108%
Cc1nc2cc3nc(-c4cccs4)cnc3cc2n1C: 108%
Nc1cccc(-c2cc3c(Oc4cccc(O)c4)ncnc3[nH]2)c1: 128%
COc1cc2ncnc(Nc3cccc(Cl)c3)c2cc1OC: 105%
COc1cc2ncnc(Nc3ccc(O)c(Br)c3)c2cc1OC: 101%
O=c1cc(-c2cccc3c2Sc2ccccc2S3)oc(N2CCOCC2)c1: 105%
O=C1C(Cl)=C(N2C(=O)CCC2=O)C(=O)c2ccccc21: 91.5%
COc1cc2c(cc1OC)-c1[nH]nc(Nc3cccc(F)c3)c1C2: 95.8%
CCN(CC)C(=O)c1ccc(Nc2nc(OCC3CCCCC3)c3[nH]cnc3n2)cc1: 98.8%
c1ccc(-c2[nH]ncc2-c2ccnc3ccccc23)nc1: 109%
Cn1nc2c3c(cccc31)C(=O)c1ccccc1-2: 93.8%
CCN(CC)CCNC(=O)c1c(C)[nH]c(/C=C2\C(=O)Nc3ccc(Cl)cc32)c1C: 82.7%
C[C@@H]1CCN(C(=O)CC#N)C[C@@H]1N(C)c1ncnc2[nH]ccc12: 107%
CN(C)C[C@H]1CCn2c(c(C3=C(c4cn(C)c5ccccc45)C(=O)NC3=O)c3ccccc32)C1: 56.2%
Ic1cccc(CSc2nnc(-c3ccncc3)o2)c1: 106%
CN([C@@H](Cc1ccc(OS(=O)(=O)c2cccc3cnccc23)cc1)C(=O)N1CCN(c2ccccc2)CC1)S(=O)(=O)c1cccc2cnccc12: 95.6%
CCOc1nc(NC(=O)Cc2cc(OC)ccc2OC)cc(N)c1C#N: 95.4%

Study 4 — host: human patients; medium: plasma; quantity: mean concentration
Compound: COc1ccc(-c2c(Nc3ccccn3)[nH]c3c(C4=CCCCC4)c(-c4ccccc4)nn3c2=O)cc1
item: methionine; 200 mg once daily, 6 h: 120000 ng/mL
item: S-adenosylmethionine; 400 mg once daily, 0 h: 20.8 ng/mL
item: methionine; 400 mg once daily, 2 h: 82400 ng/mL
item: methionine; 150 mg once daily, 0 h: 136000 ng/mL
item: S-adenosylmethionine; 150 mg once daily, 8 h: 20.2 ng/mL
item: S-adenosylmethionine; 200 mg once daily, 0 h: 17 ng/mL
item: methionine; 200 mg once daily, 0 h: 121000 ng/mL
item: S-adenosylmethionine; 150 mg once daily, 4 h: 23 ng/mL
item: methionine; 400 mg once daily, 8 h: 85300 ng/mL
item: S-adenosylmethionine; 200 mg once daily, 6 h: 15.3 ng/mL

Repeated from above (study 2):
PRKG1 (Homo sapiens, UniProt Q13976): 45.5%
SRMS (Homo sapiens, UniProt Q9H3Y6): 97.9%
CSNK1A1 (Homo sapiens, UniProt P48729): 91.5%
MYLK (Homo sapiens, UniProt Q15746): 83.8%
NEK10 (Homo sapiens, UniProt Q6ZWH5): 96.4%
EPHB1 (Homo sapiens, UniProt P54762): 100%
Ribosomal protein S6 kinase alpha-2, C-terminal kinase domain (RPS6KA2, Homo sapiens, UniProt Q15349): 100%
Tyrosine-protein kinase ABL1, phosphorylated (ABL1, Homo sapiens, UniProt P00519, M351T): 100%
